Measurements from different studies.
Parts stem from different laboratories: compare values within a part only. Changes are numbered by the printed parent chain.

Study 1
Target: Sal-like protein 4, full length isoform A (SALL4, Homo sapiens, UniProt Q9UJQ4, residues 1-1053)
Sequence of UniProt Q9UJQ4 (whole entry, looked up): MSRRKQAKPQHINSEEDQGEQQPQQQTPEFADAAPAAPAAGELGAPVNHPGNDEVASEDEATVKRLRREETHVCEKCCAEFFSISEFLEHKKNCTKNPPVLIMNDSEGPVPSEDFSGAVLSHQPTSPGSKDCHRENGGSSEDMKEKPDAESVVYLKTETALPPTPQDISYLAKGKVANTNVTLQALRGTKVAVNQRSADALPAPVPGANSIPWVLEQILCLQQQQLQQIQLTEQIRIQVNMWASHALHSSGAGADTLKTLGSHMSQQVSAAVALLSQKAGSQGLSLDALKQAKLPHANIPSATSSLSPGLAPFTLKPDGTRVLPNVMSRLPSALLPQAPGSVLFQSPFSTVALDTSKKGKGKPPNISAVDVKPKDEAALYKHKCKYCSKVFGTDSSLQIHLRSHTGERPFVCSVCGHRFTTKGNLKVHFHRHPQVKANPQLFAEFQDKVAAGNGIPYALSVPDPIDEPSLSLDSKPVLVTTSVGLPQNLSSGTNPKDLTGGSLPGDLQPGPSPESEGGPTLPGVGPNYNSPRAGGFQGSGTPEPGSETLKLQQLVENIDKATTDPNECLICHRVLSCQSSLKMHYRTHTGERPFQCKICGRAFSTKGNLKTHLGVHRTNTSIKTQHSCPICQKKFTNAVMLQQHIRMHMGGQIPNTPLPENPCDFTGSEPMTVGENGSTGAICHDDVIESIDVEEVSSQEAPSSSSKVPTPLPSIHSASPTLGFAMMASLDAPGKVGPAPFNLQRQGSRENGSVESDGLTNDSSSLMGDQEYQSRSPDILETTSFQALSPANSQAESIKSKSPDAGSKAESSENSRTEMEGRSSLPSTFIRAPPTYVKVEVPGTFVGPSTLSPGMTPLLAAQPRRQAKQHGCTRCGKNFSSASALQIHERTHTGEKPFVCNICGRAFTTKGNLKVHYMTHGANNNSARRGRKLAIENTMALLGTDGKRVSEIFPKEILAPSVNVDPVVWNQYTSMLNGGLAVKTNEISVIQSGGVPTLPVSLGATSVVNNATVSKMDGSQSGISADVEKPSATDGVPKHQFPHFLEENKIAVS
Method: universal PBM
Form: double-stranded DNA, one strand shown
Matrix: in vitro
Tested at: 600 nM
Setting: 8-mer, flanks averaged, mean of replicates
Direction: higher = stronger binding
Measurement: E-score
Strand = ACATTTAC; result = 0.22
Strand = TCTCCTCA; result = -0.031
Strand = AGGGGCAG; result = -0.235
Strand = CTGACGCA; result = -0.185
Strand = TAGTGTAA; result = 0.282
Strand = GATTAGGA; result = 0.102
Strand = CAACCTCC; result = -0.102
Strand = ATCGTTAC; result = 0.11
Strand = GCCCTTAA; result = -0.0262
Strand = ATGCGAAT; result = 0.223
Strand = AGGATGGA; result = -0.0503
Strand = CGGTTCTC; result = -0.154
Strand = AGCACTGG; result = -0.208
Strand = ACGAAACG; result = 0.022
Strand = ATCTAGGA; result = 0.0528
Strand = CCTGTGAA; result = 0.0166
Strand = AACACCTT; result = -0.01
Strand = ACCCTGGC; result = -0.31
Strand = CCGAAGCA; result = -0.009
Strand = CTCTCAGA; result = -0.0597

Study 2
Target: Ras GTPase-activating protein-binding protein 1, full length (G3BP1, Homo sapiens, UniProt Q13283)
Sequence of UniProt Q13283 (whole entry, looked up): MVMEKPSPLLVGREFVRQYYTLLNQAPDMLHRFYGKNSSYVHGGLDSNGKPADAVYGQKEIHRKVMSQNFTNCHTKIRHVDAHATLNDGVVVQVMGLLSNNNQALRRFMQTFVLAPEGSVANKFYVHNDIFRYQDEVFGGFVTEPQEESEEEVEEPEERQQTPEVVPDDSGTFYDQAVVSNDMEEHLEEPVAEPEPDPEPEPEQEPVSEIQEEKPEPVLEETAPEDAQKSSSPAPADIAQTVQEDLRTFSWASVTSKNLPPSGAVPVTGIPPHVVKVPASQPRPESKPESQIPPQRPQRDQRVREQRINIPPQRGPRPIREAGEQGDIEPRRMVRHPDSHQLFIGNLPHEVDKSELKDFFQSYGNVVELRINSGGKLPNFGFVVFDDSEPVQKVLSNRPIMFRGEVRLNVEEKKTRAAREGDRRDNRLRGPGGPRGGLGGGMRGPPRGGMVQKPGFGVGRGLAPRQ
Method: RNA Bind-n-Seq
Form: RNA
Matrix: in vitro
Tested at: 200 nM
Setting: whole 134-nt RNA, ends assumed
Added: 150 mM LiCl
Reference: input library
Direction: higher = stronger binding
Measurement: log2 enrichment
Library: 7-deaza-guanosine replaces G
All sequences stand within: GGGAGUUCUACAGUCCGACGAUC … UGGAAUUCUCGGGUGUCAAGG
Strand = CUCAAGUCCUGUGCUACACAUCGUAUGUACCGAAUCGGGGAGGGGAGGGAGGGGAAAGUAUUAUGUUACGCCGUUCGGAUCUGCACUUCC; result = 0.132
Strand = GUCCUGUGCUACACAUCGUAUGUACCGAAUCAAACCCAAACCCCCCCAAACCCCCAAAAAAGUAUUAUGUUACGCCGUUCGGAUCUGCAC; result = -0.00505
Strand = UGACCCUGGUGGCAUGCGGGGAGGAAGAGGUGGCCUCAUGGAUCGUGGUGGUCCCGGUGGAAUGUUCAGAGGUGGCCGUGGUGGAGACAG; result = 0.233
Strand = UAACUUUAGAGGAGGAUCUGAUGGAUAUGGCAGUGGACGUGGAUUUGGGGAUGGCUAUAAUUGGUAUGGAGGAGGACCUGGAGGUGGCAA; result = 0.26
Strand = UGGCCCUGGUGGCAUGCGGAGAGGAAGAGGUGGCCUCAUGGAUCGUGGUGGUCCCGGUGGAAUGUUCAGAGGUGGCCGUGGUGGAGACAG; result = 0.096
Strand = CCUGUGCUACACAUCGUAUGUACCGAAUCGGGGUUUUUGGGGUUUUUGGGGAAAAAGGGGAAAGUAUUAUGUUACGCCGUUCGGAUCUGC; result = 0.586
Strand = CCUGUGCUACACAUCGUAUGUACCGAAUCGGGGAAAGGGGAAAAAGGGGUUUUUUUGGGGAAAGUAUUAUGUUACGCCGUUCGGAUCUGC; result = 0.623

Study 3
Target: RING finger protein unkempt homolog, zinc fingers 1-6, SBP tag (UNK, Homo sapiens, UniProt Q9C0B0, residues 30-357)
Sequence of UniProt Q9C0B0 (30-357, looked up): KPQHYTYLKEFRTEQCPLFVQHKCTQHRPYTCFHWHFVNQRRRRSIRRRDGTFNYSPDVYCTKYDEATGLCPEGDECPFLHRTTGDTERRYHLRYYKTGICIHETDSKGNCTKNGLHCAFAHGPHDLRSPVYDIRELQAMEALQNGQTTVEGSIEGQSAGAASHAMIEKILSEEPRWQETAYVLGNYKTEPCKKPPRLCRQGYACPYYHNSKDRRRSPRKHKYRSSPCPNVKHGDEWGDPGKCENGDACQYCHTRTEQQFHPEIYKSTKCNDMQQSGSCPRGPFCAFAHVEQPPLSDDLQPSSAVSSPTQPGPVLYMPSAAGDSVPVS
Method: RNA Bind-n-Seq
Form: RNA
Matrix: in vitro
Tested at: 100 nM
Setting: RNA with constant flanks, vertebrate orthologous sites, ends assumed
Reference: input RNA pool
Direction: higher = stronger binding
Measurement: bound/input enrichment
All sequences stand within: GGGAGUUCUACAGUCCGACGAUC … CAACAGAGGAUUGAGCAUCA
Strand = UUCAUCACUCCUGGGUGCGUGAUUGAGGGUGAAGCAUCCACCAGCACUGCAAGGGGUCCAUAGUAUUUUUUUUUUUUCUGCCUCAAAGUCCCCAAAACCUUCGAGCAGAUAUGGCAGUAG; result = 3.02 ratio
Strand = CUUAUUUCCAGGUUGGCUCUAGUGGAAAAGUCAUAGGAAUUGACCACAUUAAAGAGCUAGUAGAUGACUCAAUAAAUAAUGUCAAAAAGGACGAUCCAGUGCUUUUGUCUUCAGGGAGAG; result = 0.731 ratio
Strand = ACUGGCCGCGGGGCGAGCUCCAGAGAGCUGCUGGCUGCUCGUCGGGUUAUGACCUUGACGUGAUAGGUAGGUUCGCGUGUUUUUUAAUUUAAAGAUGUUAAGACUUAAUUCACUAAAAUU; result = 0.327 ratio
Strand = AGUGCUGAAUAGUAUUAAACAUUUUCGUCUUCCUUUACCUUUUAUCCCCUACCUAAUAUCUAGUCUACUUUUUUAAAUUUCAAAUUUCACUGCUCUUUGAAUUGAUAAUUUCAAUUUUCA; result = 7.93 ratio
Strand = UGACCAUACAUAGACAAUGUGUAUCAAAUGCUGGUUGUAAAAUUAAAUCAUCAUCUAGAAUAGAGUUAAUUUGUUAUAAUCAAGCUACACAUAGGUUUUCUUAAACCAGAGGUGAUGCAC; result = 0.505 ratio
Strand = UCCCAGCACUUCGAUAAAAAGCGUGGACUGGUUGCUUGUAUUUUCCUUAUUCUUUUUAAUUAGUUUUAUUAUGUAUGCUACUAUUCGAACUGAGAGCAUUCGGUGGCUAAUUCCAGGACA; result = 1.87 ratio
Strand = GUCCAAAUAUCUAUAGUCAUUCCUAUAGGAGGUAUAACAUUUAACAACAAAUGUAUCAUAUCUAGUUAAACCGAAUAUAUUUUUAUUAGCCUGUAAAUACUCUUCUGUACUUCAGUGAUU; result = 1.87 ratio
Strand = GAGAUCUGGACCUUAUAGACUAACCAGGUUAUUAGCAGAAGUAAAACAAACAUCAGAUUAUAGCUAAGUGCAGCUAUGUACUAUCACUAGCAGCUAUAUAAGUAUUUAUAAAGAACAUUU; result = 0.911 ratio

Study 4
Target: ABI1, truncated, D143A, DHFR fusion (Arabidopsis thaliana)
Method: DHFR PCA, deep sequencing
Matrix: yeast
Setting: methotrexate growth selection, single substitutions
Added: (+)-ABA 200 µM
Reference: wild-type fitted maximum
Direction: higher = stronger binding
Measurement: relative binding score
Parent: PYL1, truncated, DHFR fusion (Arabidopsis thaliana); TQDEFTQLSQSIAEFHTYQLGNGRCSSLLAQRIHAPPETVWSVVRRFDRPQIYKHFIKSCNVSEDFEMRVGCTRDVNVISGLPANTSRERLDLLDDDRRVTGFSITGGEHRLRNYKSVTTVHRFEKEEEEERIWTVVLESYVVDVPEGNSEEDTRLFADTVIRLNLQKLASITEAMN; partner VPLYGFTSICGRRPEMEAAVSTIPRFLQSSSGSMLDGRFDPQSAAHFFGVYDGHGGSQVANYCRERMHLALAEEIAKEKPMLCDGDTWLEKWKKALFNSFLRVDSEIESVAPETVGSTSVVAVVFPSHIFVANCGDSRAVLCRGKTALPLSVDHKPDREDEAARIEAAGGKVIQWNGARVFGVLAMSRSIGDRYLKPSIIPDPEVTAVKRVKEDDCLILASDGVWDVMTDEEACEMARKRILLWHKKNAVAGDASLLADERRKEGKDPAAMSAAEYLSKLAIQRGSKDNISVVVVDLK
Change = E14Y; result = 76.7%
Change = V137L; result = 62.4%
Change = T173P; result = 10.9%
Change = E152C; result = 89.4%
Change = R155H; result = 72%
Change = I79R; result = 92.5%
Change = V78C; result = 103%
Change = R90D; result = 22.7%
Change = Y141L; result = -6.78%
Change = E4T; result = 95.4%
Change = T160Q; result = 75.5%
Change = T160N; result = 84%
Change = R24G; result = 80.2%
Change = E4H; result = 88.8%
Change = D95W; result = 60%
Change = S150A; result = 74.8%
Change = Q19Y; result = 93.1%

Study 5
Target: PABPC1L2, full length, GST fusion (mouse, UniProt A0ABA7IW68)
Method: RNAcompete
Form: RNA
Matrix: in vitro
Tested at: 20 nM
Setting: 7-mer, probes averaged, single round
Reference: mean of 7-mers
Direction: higher = stronger binding
Measurement: 7-mer Z-score
Target sequence (chain): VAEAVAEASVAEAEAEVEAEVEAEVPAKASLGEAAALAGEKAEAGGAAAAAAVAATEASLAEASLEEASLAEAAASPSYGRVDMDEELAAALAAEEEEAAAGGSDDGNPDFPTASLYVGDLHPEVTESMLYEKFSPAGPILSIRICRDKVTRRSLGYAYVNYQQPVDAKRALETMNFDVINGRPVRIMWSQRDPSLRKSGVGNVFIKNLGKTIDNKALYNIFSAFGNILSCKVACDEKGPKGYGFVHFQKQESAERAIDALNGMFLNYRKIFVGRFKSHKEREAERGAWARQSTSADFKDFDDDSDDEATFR
Strand = GCUCGUU; result = -0.485
Strand = CGUGCAG; result = -0.0917
Strand = CCGUCAA; result = -0.351
Strand = GCCCAAA; result = 0.505
Strand = GGAUUGA; result = -0.11
Strand = CCUCACU; result = -0.0681
Strand = AAAAAAC; result = 24
Strand = UAGCUUC; result = -0.425
Strand = UGAUUAU; result = -0.148
Strand = CACCUGG; result = -0.253
Strand = GCUAGGA; result = 0.231
Strand = UUCCAGA; result = -0.179
Strand = AGUUAAA; result = 0.501

Study 6
Target: Histone acetyltransferase KAT6A, winged helix 2, GST fusion (KAT6A, Homo sapiens, UniProt Q92794, residues 85-181)
Method: protein binding microarray
Form: double-stranded DNA, one strand shown
Matrix: in vitro
Tested at: not given
Setting: 8-mer, flanks averaged, mean of 2 arrays, mostly near background
Reference: not given
Direction: higher = stronger binding
Measurement: E-score
Residues (chain): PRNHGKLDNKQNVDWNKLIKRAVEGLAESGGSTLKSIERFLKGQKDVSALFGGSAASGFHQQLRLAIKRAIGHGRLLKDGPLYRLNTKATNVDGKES
Strand = GCGTCGAA; result = 0.119
Strand = CACCGAAA; result = 0.0423
Strand = GGGTCGCA; result = 0.147
Strand = CGGATTAC; result = -0.103
Strand = CATCGGAA; result = -0.114
Strand = CCTCCAAG; result = 0.0592
Strand = AGCCGGGG; result = 0.219
Strand = CCTTCACC; result = -0.138
Strand = AAAACTTC; result = 0.00579
Strand = CTTACAGC; result = -0.0902
Strand = ACGATGCT; result = -0.0424
Strand = TCACCGCA; result = 0.0203
Strand = ATACCTCG; result = 0.0709
Strand = CTTGGGAC; result = 0.0466
Strand = CAGGAACA; result = -0.103
Strand = GCAGGGTA; result = -0.0424
Strand = CGATGTGA; result = -0.192
Strand = ACTACTCA; result = -0.0576
Strand = GGCTCACC; result = -0.00317
Strand = GCGCGCAA; result = 0.17
Strand = CCCGCTCC; result = -0.0309
Strand = ATGCCATA; result = -0.147
Strand = CAGCGTGG; result = 0.148
Strand = ATCAGTGG; result = -0.0964
Strand = TGTGTTAA; result = -0.00743

Study 7
Target: Interferon regulatory factor 5, full length, phosphomimetic (IRF5, Homo sapiens, UniProt Q13568-2, residues 1-514, K96S/S451D/S453D/S456D/S462D)
Method: protein-binding microarray
Form: double-stranded DNA, one strand shown
Matrix: in vitro
Tested at: 250 nM
Setting: 60-bp whole probe
Added: salmon DNA 0.4 mg/ml
Reference: random background probes
Direction: higher = stronger binding
Measurement: log fluorescence
All sequences stand within: GCCTAGCAC … GTCTTGATTCGCTTGACGCTGCTG
Strand = TCAAATGACCTTCTCAGACTGTGCTAG; result = -0.0514 z-score
Strand = GTAGGTCTCGGTATCGGTTAGTGCTAG; result = 5.01 z-score
Strand = GATGGTTTCCTTCTCCTGACGTGCTAG; result = 1.13 z-score
Strand = GACGGTCTCGGTTGCGGGACGTGCTAG; result = 0.292 z-score
Strand = TTAGGTATCGACACTTGGTTAGTGCTA; result = 2.13 z-score
Strand = GACGGTCTTCTACTGCTGACGTGCTAG; result = -0.226 z-score
Strand = GACCGTTTCGACACTGGGGACGTGCTA; result = 3.51 z-score
Strand = TCACATTTCCTTTACATACTGTGCTAG; result = 0.88 z-score
Strand = TCCAGCCTGTTTCCAGCAGGGTGCTAG; result = -0.412 z-score
Strand = GACGGTTTCCTTTTCCTGACGTGCTAG; result = 1.3 z-score
Strand = GACGAACTGGGGACTGGTGACGTGCTA; result = -0.4 z-score
Strand = AGGATCCAGCCTGCAACCTCGTGCTAG; result = -0.547 z-score
Strand = AGGCATGTGGGTTCCATCATGTGCTAG; result = -0.473 z-score
Strand = TTAGATTTTAGTATCGATTAGTGCTAG; result = 8.15 z-score
Strand = GACGGTCTCGGTCTCGCGACGTGCTAG; result = 0.097 z-score

Some of these lines once more (study 1):
Strand = CAACCTCC; result = -0.102
Strand = ATCGTTAC; result = 0.11
Strand = GCCCTTAA; result = -0.0262
Strand = ATGCGAAT; result = 0.223
Strand = AGGATGGA; result = -0.0503
Strand = CGGTTCTC; result = -0.154
Strand = AGCACTGG; result = -0.208
Strand = ACGAAACG; result = 0.022
Strand = ATCTAGGA; result = 0.0528
Strand = CCTGTGAA; result = 0.0166
